Results collected from several papers.
Every numbered part comes from another study and shows a few of its results, in no order.

Block 1
Target: RNA binding protein fox-1 homolog 2, RRM domain, GST-SBP tag (RBFOX2, Homo sapiens, UniProt O43251-10, residues 100-194)
Technique: RNA Bind-n-Seq
Molecule type: RNA
Medium: in vitro
Tested at: 365 nM
Setting: natural RNA segment, single round, ends assumed
Relative to: no-protein control
Reading: higher = stronger binding
Residues (chain): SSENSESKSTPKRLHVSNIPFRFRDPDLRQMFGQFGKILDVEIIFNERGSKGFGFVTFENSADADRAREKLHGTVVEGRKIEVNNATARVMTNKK
Strand | RBNS enrichment (R)
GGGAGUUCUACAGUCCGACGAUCGUCUGUUGUAUUUCUGUGUGCCUGUUCCCUUCAUUGCUGUGAGUUGGGAGUGCAUUGAGAGAUGAUGUCCAUCUGAUAUAUUCCUGUGAAAUAAACUGCCAGCAAACUUUUGGAAUUCUCGGGUGCCAA | 0.84
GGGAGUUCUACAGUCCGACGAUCUCCAGGCUGGAAGAAUUGUAACAUAGCAUGAUAUCUUUGUGUUAACUUGAAAGGACUGACCCCAUUGUCCCUUAGAAGUACUGACGUGUGCCAUCACGCAUUUAAGACAGUGGAAUUCUCGGGUGCCAA | 6.11
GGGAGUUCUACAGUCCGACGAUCCUCAAAAGUGAGGAAAAUGGAUGUUUUAAAAUGGUAUUUUCAAUUUUUUAUAAGCAAAAUUUUGUAUGUUAUUGUAUAGUAUUUAUUUGAUCUUAUUUACUUUAUGCUACUGGAAUUCUCGGGUGCCAA | 2.19
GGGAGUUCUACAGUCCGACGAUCGUAUAUCAUACAUGAUCUUAAAGCCAAAGAUGCCAUGAAAAUACUGCAGUAUGGCUGUGAUUUCUGCUUCUCCAUGUAGGGGAGCAUGGGACAUCCACUGCCACGCCAAAUGGAAUUCUCGGGUGCCAA | 0.26
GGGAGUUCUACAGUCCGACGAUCUGCCUGCGGAAGGUAGGAUUAGAUCAUUAGCUCAGUGACCUCCUAGGGUUUCGAUGUGCUAUGUUCUCAUCCUACAGUUGGUUUGGUAAUGAUCUGCAAGUCCCGGAGAGUGGAAUUCUCGGGUGCCAA | 2.01
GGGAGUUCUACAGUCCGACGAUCCUUACUGUUAACCAAAUUUUGAGCAAGGAGUCUCAAAGGUAAUUCUGAACCAGAAUUACAUGUUAAUGAACAGUGUACCUUUUAACAGUGUAAAUCACGGAAUAUCCGUGUGGAAUUCUCGGGUGCCAA | 0.392
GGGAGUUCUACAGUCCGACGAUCAAAAAACAAAAUAUAUUUUAGAUUUCUCCCCUAAAGUUAGUUAGAGAAAAAGGUCUAUUCUUCAGCAGAUCACUGUGGCCCCUCUUGGAGCUGGGUGUUUUCAAAUUUUCUGGAAUUCUCGGGUGCCAA | 0.466
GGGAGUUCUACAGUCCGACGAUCAGAGAUCACAUCGCCUCUUAGAGACCAUGUCACCUCCUAUCUGUCACCCUUCCUCUUCCUGUCACAGUGACAGGUCUUCACUAGCUGGCUUCUUUCUGUACUUGCUGACUUGGAAUUCUCGGGUGCCAA | 0.294

Block 2
Substance: Histone H2A type 1-B/E (Homo sapiens, UniProt P04908)
Technique: cross-linking MS
Setting: hits only
partner | interaction screen
H2BC20P (Homo sapiens, UniProt Q6DN03) | cross-linked
H2BC3 (Homo sapiens, UniProt P33778) | cross-linked
H2AC7 (Homo sapiens, UniProt P20671) | cross-linked
H3-7 (Homo sapiens, UniProt Q5TEC6) | cross-linked

Block 3
Target: RING finger protein unkempt homolog, zinc fingers 1-6, GST-SBP tag (UNK, Homo sapiens, UniProt Q9C0B0, residues 30-357)
Chain of UniProt Q9C0B0 (30-357, looked up): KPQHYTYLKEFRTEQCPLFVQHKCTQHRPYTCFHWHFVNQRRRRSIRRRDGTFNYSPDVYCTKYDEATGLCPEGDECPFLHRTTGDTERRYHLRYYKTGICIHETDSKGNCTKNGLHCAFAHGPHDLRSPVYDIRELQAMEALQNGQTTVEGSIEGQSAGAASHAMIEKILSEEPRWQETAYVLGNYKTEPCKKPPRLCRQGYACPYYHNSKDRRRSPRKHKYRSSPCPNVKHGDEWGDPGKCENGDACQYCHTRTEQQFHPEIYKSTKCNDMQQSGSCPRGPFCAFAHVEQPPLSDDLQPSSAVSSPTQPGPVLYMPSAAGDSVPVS
Technique: RNA Bind-n-Seq
Molecule type: RNA
Medium: in vitro
Tested at: not given
Setting: RNA with constant flanks, human-mouse chimeric sites, ends assumed
Relative to: input RNA pool
Reading: higher = stronger binding
Strand | bound/input enrichment [ratio]
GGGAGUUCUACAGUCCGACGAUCAAAGAGAAAGCUAAAACACUAAUAGAGAAGAGGAUUGGCAAAGAGAAUUUCAUAGAGAAACUAGGAUUUAUUAGCAAAACAUGAGUUUAUUCCAGAGCGUCUCAGAAACCCCAGCCAAACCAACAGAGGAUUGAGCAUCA | 11.2
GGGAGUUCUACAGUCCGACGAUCUAAGUCCUGUGCCAGCACUUCGCUCAUAAAGUUUUAAAUUCUGGACCAAUUGUGUUUGUUUCCUGAUUAUUGUAUCCAAUACUUUGCCUAGUAUGUAACUCACUCUUACUGAUAAUAAAACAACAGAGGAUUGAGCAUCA | 1.24
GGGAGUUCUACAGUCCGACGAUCAAAGUGGACUAUGGUGAGUACAUGGAUAAAAACAAUGUGAGGCGGCAAGCAACAACAAUCAUAGCUGAUAAUAUUAUAUUUCUGAGUGACCAGACAAAAGAAAAGGCAUAGAACGGAUGACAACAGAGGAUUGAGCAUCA | 5.94
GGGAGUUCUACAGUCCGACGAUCCCAAUUGUGGAGCAGUACUUGAAGACAAAGAAAAAUUCUAAUAAUUUAAUCAUGAAAUACAUUAGCUGCCGCCUGCUGACACUCAUCAUUAUACUGUUGGCAUGUAUCUACCUGGGCUAUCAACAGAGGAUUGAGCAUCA | 0.495
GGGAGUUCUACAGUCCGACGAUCGCUCCUCCCCGCUCUGCAGCCUGGGGACACUGGGCUGCAUUUUUUUUCCAGCUUUCUUUUAAAACUCUAUAUUUUUUUGUAUCCCGUGACAUUUCAUUUUUUUUAAAUAGUGUAUUUUUUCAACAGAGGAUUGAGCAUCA | 21
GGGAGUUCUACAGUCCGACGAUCCACAGAGGAGACCUCCUGUUCCUCACGAAUUUCCGGGAGGACCCCAUCAGAGCUGGUGAAAUAGUUGUUUUUAAGGUUGAAGGAAGAGACAUUCCAAUAGUUCACAGAGUAAUCAAGGUUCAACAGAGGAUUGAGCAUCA | 4.64
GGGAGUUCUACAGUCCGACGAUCUUCAAAGAAAAGGGCAGCUGUGUCAUUUCAUAAGUAACUCUGGGGGAGGGAAAUUCUGUUCUUUUGUUUUUAGUUUUCCCAAAUGAAGCCAAAGUGUGUGUUGAAGAAGGAAGAAUGAAUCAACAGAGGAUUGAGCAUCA | 0.4
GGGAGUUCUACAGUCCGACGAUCGAGCGUCUUGCCCGCACCGGGAUCAUAGUGACCACUAGUGAGGCUGUCCUCCUACAGCUGGUGGCUGAUAAGGACCACCCGAAGUUCAAGGAAAUUCAGAACCUAAUUAAGGCGAGUGCCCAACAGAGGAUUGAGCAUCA | 0.147

Mixed results
Molecule | target | assay | test system | setting | endpoint | value
GFAIPIILK | HLA class I histocompatibility antigen, A alpha chain, allele A*80:01 (Homo sapiens, UniProt P04439) | peptide-MHC binding | peptide | concentration not given | binding | inactive

Some of these lines once more (mixed results):
Molecule | target | assay | test system | setting | endpoint | value
GFAIPIILK | HLA class I histocompatibility antigen, A alpha chain, allele A*80:01 (Homo sapiens, UniProt P04439) | peptide-MHC binding | peptide | concentration not given | binding | inactive
